Results pooled from the literature.
Parts stem from different laboratories: compare values within a part only. Positions count from the first letter of the parent shown.

Sample 1 — target: CCNB3, cyclin fold, Cln2 fusion (human); method: yeast growth competition, sequencing; medium: yeast; notes: strong parent motif; relative to: not given; direction: higher = stronger binding
Parent: E2F1 docking peptide (human); PPVKRRLDFETDH; partner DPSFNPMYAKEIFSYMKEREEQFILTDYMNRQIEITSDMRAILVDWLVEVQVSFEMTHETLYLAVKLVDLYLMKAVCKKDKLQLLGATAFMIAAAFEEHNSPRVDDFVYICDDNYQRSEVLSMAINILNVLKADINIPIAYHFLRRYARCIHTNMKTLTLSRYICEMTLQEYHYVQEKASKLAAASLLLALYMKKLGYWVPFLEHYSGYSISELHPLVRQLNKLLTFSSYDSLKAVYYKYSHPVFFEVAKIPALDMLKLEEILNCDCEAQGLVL
`PPVKRRLDFEFDH [T11F]`: “normalised enrichment score” 2.96.
`PPVKRRKDFETDH [L7K]` — result for “normalised enrichment score”: -0.259.
Under “normalised enrichment score”, `PPVKRRLDFETNH [D12N]` is recorded as 3.04.
`PDVKRRLDFETDH [P2D]` — result for “normalised enrichment score”: 1.56.
Under “normalised enrichment score”, `PPVKRVLDFETDH [R6V]` is recorded as 3.67.
`PPVKRRLAFETDH [D8A]` — result for “normalised enrichment score”: 1.69.
Under “normalised enrichment score”, `PIVKRRLDFETDH [P2I]` is recorded as 1.36.
`PPVKRRRDFETDH [L7R]`: “normalised enrichment score” -0.0832.
For `PPVKRHLDFETDH [R6H]`, “normalised enrichment score” read 0.461.
`PPVKRRLCFETDH [D8C]`: “normalised enrichment score” 3.21.
`PPVRRRLDFETDH [K4R]`: “normalised enrichment score” 4.25.
For `PPRKRRLDFETDH [V3R]`, “normalised enrichment score” read 0.292.
For `PPVKRRLDFETIH [D12I]`, “normalised enrichment score” read 3.24.
Under “normalised enrichment score”, `PPVKRTLDFETDH [R6T]` is recorded as 3.18.
`PPVKHRLDFETDH [R5H]` — result for “normalised enrichment score”: -0.0159.
`PPVKRRLDCETDH [F9C]` — result for “normalised enrichment score”: -0.137.
`PPVKCRLDFETDH [R5C]`: “normalised enrichment score” 0.615.
`PRVKRRLDFETDH [P2R]`: “normalised enrichment score” 2.41.
Under “normalised enrichment score”, `PPVKRRLQFETDH [D8Q]` is recorded as 2.34.
Under “normalised enrichment score”, `PPEKRRLDFETDH [V3E]` is recorded as -0.0383.
`PPVKRRFDFETDH [L7F]`: “normalised enrichment score” 0.15.
`PPVKRRLDFETWH [D12W]`: “normalised enrichment score” 2.74.
`PPVERRLDFETDH [K4E]` — result for “normalised enrichment score”: 0.0811.
`PLVKRRLDFETDH [P2L]`: “normalised enrichment score” 1.6.

Sample 2 — method: RNA Bind-n-Seq; molecule type: RNA; medium: in vitro; concentration: 200 nM; notes: whole 134-nt RNA, ends assumed; added: 150 mM LiCl; relative to: input library; direction: higher = stronger binding; each molecule: 7-deaza-guanosine replaces G
Target: Ras GTPase-activating protein-binding protein 1, full length (G3BP1, Homo sapiens, UniProt Q13283)
UniProt Q13283, sequence (whole entry, looked up): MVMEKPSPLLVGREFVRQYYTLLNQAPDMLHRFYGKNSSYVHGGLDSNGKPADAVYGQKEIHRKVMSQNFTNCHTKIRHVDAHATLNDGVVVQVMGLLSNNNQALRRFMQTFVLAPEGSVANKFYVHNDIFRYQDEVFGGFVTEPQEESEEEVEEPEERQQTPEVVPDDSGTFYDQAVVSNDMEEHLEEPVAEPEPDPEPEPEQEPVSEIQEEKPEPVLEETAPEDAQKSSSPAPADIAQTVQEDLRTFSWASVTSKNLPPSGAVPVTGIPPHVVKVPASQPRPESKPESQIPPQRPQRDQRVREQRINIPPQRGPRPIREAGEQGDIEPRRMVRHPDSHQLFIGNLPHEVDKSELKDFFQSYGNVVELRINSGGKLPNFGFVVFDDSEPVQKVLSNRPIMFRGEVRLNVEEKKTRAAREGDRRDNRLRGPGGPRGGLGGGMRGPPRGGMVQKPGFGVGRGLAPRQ
With `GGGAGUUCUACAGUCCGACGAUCCAAGUCCUGUGCUACACAUCGUAUGUACCGAAUCGGGGUUUGGGGAGGGGUGGGGAAAGUAUUAUGUUACGCCGUUCGGAUCUGCACUUCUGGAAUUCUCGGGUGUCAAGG` the log2 enrichment was -0.0896.
`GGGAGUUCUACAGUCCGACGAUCCACAGACAACACGCACCCACACAGACACAGAGGGAAGGGGUUGGGAUGGGGACAGGGUGCACAGCAGGGCGGGAUAGGACCCCAGCCCCUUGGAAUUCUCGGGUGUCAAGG` has a log2 enrichment of 0.785.
`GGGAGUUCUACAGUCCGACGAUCCAAGUCCUGUGCUACACAUCGUAUGUACCGAAUCGGAGGUUUUUGGUUUUUUUGGAAAGUAUUAUGUUACGCCGUUCGGAUCUGCACUUCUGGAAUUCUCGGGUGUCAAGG` gave a log2 enrichment of -0.703.
The log2 enrichment of `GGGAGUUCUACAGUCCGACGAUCUGUGCUACACAUCGUAUGUACCGAAUCGGGGAAAAAAAGGGGAAAAAAAGGAAAAAAAGGGGAAAGUAUUAUGUUACGCCGUUCGGAUCUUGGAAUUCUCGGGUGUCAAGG` is reported as 0.383.
The log2 enrichment of `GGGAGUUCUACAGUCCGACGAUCCACAGACAACACGCACCCACACAGACACAGAGGGAAGGGGUUGGGAUGGGGACAGGGUGCACAGCAGAAAGGGGUAGGACCCCAGCCCCUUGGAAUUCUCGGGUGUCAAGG` is reported as 0.366.
`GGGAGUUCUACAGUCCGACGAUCAAGUCCUGUGCUACACAUCGUAUGUACCGAAUCGGGGUGGGGAAAGGGGUUUGGGGAAAGUAUUAUGUUACGCCGUUCGGAUCUGCACUUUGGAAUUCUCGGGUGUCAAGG` gave a log2 enrichment of -1.15.
`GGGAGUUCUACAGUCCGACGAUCUGGGAGGUGGAUUUUGUAUAUUUUUUUAGCUCAUUUCCAGGGGUGGGAAUUUUUUUUUAAUAUGUGUCAUGAAUAAAGUUGUUUUUGAAAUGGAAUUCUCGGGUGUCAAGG` gave a log2 enrichment of 0.0322.
`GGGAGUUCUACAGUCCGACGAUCGGGUCUGUUGCAAAUAAAUUCUAUGUUCACAAUGAUAUCUUCAGAUACCAAGAUGAGGUCUUUGGUGGGUUUGUCACUGAGCCUCAGGAGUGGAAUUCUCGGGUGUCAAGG` gave a log2 enrichment of -0.518.
With `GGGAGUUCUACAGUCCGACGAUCUGGAGAAGGAACGUGAUAAAGAAGUAAGCGAUGAUGAGGCUGAAGAAAAGGAAGACAAAGAAGAAGAAAAAGAAAAAGAAGAGAAAGAGUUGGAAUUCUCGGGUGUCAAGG` the log2 enrichment was 0.651.
For `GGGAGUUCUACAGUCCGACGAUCUGGCCGGUGGCCGUGAGAACACGCUGUGUGGCUGAAAAGUGAAGGCAAGAGCUGAUUUGGCCUCUGUGCUCCCCUCCGCAAGGGGAUCGUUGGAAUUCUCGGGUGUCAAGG`, the log2 enrichment was -0.313.
With `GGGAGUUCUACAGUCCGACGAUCUAACUUUAGAGGAGGAUCUGAUGGAUAUGGCAGUGGACGUGGAUUUGGGGAUGGCUAUAAUGGGUAUGGAGGAGGACCUGGAGGUAGCAAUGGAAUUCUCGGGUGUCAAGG` the log2 enrichment was -0.371.

Sample 3 — method: RNA Bind-n-Seq; molecule type: RNA; medium: in vitro; concentration: 365 nM; relative to: no-protein control; direction: higher = stronger binding
Target: RNA binding protein fox-1 homolog 2, RRM domain, GST-SBP tag (RBFOX2, Homo sapiens, UniProt O43251-10, residues 100-194)
Notes: natural RNA segment, single round, ends assumed
Construct (chain): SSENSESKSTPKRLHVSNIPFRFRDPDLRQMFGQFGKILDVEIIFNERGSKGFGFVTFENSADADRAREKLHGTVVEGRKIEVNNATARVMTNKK
`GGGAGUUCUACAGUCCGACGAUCAGCAGAGCCCUCAGUGAGAGCUGCACACACGAGCCUCUAGCAUCACUACACAGUGUGCACACACUGGGGACUCCCCAGUCCUCCUGACUAUUAUGGGGACACAGGAAAGAUGGAAUUCUCGGGUGCCAA` — result for “RBNS enrichment (R)”: 0.413.
Under “RBNS enrichment (R)”, `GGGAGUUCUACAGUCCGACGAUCGAGCCAGGGAGCCGAAGCAGUGCUUCAGGGGGUACUGUCACUAAGCCCUCAAGAUACCCUUGUCCCUGAAGUAGGGACUAACUAUAGCACAAGAUAGUAUGUGCCAAUAUUGGAAUUCUCGGGUGCCAA` is recorded as 0.364.
For `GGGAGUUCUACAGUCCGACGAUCCUGAGUUGAAUUUCUGGGAGGAUGACGCAGAUGUCUGCUGCAGAGCUGGGCUGAGAGUUCUGCAGUCUAGCUCUGACUUAGGUCAGGGGCCUGUUGGUCUCUCAUUGGACUGGAAUUCUCGGGUGCCAA`, “RBNS enrichment (R)” read 0.32.
Under “RBNS enrichment (R)”, `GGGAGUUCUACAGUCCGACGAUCAGCUGGGCAAGACCACUGGGAGGCCUGAGAGUGGGCCAGCUCGCUGCUCAGGCGAAUUUCUCAUUUCAAGCCACUGGGGAAACUGAGGCAAAACCAUACUUAGUCAUCACUGGAAUUCUCGGGUGCCAA` is recorded as 0.234.
`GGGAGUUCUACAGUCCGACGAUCUGAUGAGGAGUUGGGGCCCUGUCUGUCCUAGGCCUGGAGAGUGCCUGUCUGGGAAAAGGUCACUGGACCUGGAAGGGUCCCCAGGGUCCCCUGACUCCCGUCUCCAUCUGUGGAAUUCUCGGGUGCCAA` — result for “RBNS enrichment (R)”: 0.309.
For `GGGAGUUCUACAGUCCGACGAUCCUCGUGGGUGGUGACUUUUCCUGCAGGGCGCACGCCCUGCUGCAGCCCCCUCCCCCGCAGCCCGGAACCCACAUUGCCGGCGCAUCCUGGGUGGAGGCAGACCCCGAGCUUGGAAUUCUCGGGUGCCAA`, “RBNS enrichment (R)” read 0.338.
`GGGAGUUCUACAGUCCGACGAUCAUCUGGGGACCCUCUCCCCGGCUGCCUCAGGCUUCUCCCACGAAGAGGAAACGCAAAAAAAGAAAAAGAAAAGGAAUAUAACUACUACGUGCUCAUCCCCUUCCCUCCCGUGGAAUUCUCGGGUGCCAA` — result for “RBNS enrichment (R)”: 0.418.
`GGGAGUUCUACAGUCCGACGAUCCAAACGCCAUGGGUGCCGUCAGCGAGCGAAGCCUCUCGUGUCGGCUGAUAAAAGCCAGUGGCAGCUGUCGUGGCUGUGCUUUGUACUGCUCUCUACCAUGAAAGUGUAAAUGGAAUUCUCGGGUGCCAA`: “RBNS enrichment (R)” 0.357.
For `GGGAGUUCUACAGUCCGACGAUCGCUGGCUGCCUGCGGGCCUAAGCCUUCCCAGGAUCUUCAGGACACUUGACAGACUUGUGUUUUCUGGUCUGAGCUGCCUCCACAGGUCCCUCCAGCAAGCCUCACUGCACUGGAAUUCUCGGGUGCCAA`, “RBNS enrichment (R)” read 2.23.
`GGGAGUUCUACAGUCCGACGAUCCGACCAUCUCUUCUAUUAAAUUACAGUACAUGUUCUAGACCAUUGAGAUCAAGCCUUUACUCCCUUUGAGAGUUUCCAACAUCAGUUGAUUGAGCUUCAGGCUUUACAACUGGAAUUCUCGGGUGCCAA` — result for “RBNS enrichment (R)”: 0.409.
`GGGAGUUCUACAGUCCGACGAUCCUUCAAAUUCUCUUUCAGUAGUACAAUAGCAGGGGGAAAGGGGACAGGUAACAGGAGUACCUUUGUUUUAACAGACAAAAGUAAUCUCCAGGCCUUAGGGACUCAUAAAGUGGAAUUCUCGGGUGCCAA`: “RBNS enrichment (R)” 0.265.
`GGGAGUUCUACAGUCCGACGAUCCCUCCACCUGUCCUCUGGGGGGGCCCUGAGAGGGAAGGAGAGGUUUCUCACACCAAGGCAGAUGCUCCUCUGGUGGGAGGGUGCUGGCCCUGGCAAGAUUGAAGGAUGUGUGGAAUUCUCGGGUGCCAA`: “RBNS enrichment (R)” 0.473.

Single results of other studies
`PhoQ, residues 284 288 289 292 302 303 NLGVHL` has a fold induction of 2.17 (PhoP, residues 12 14 15 18 19 TQCLL (Escherichia coli, UniProt P23836); Sort-seq, refers to: YFP reporter; E. coli; PhoQ-PhoP variant library, added: 10 µM Mg2+; relative to: high Mg2+ state, higher = stronger signaling).

A few entries again (sample 2):
`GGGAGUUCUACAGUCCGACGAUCCACAGACAACACGCACCCACACAGACACAGAGGGAAGGGGUUGGGAUGGGGACAGGGUGCACAGCAGGGCGGGAUAGGACCCCAGCCCCUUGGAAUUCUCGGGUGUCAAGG` has a log2 enrichment of 0.785.
`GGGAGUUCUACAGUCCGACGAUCCAAGUCCUGUGCUACACAUCGUAUGUACCGAAUCGGAGGUUUUUGGUUUUUUUGGAAAGUAUUAUGUUACGCCGUUCGGAUCUGCACUUCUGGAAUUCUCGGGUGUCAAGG` gave a log2 enrichment of -0.703.
The log2 enrichment of `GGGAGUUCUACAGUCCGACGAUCUGUGCUACACAUCGUAUGUACCGAAUCGGGGAAAAAAAGGGGAAAAAAAGGAAAAAAAGGGGAAAGUAUUAUGUUACGCCGUUCGGAUCUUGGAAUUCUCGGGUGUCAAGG` is reported as 0.383.
The log2 enrichment of `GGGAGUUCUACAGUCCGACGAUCCACAGACAACACGCACCCACACAGACACAGAGGGAAGGGGUUGGGAUGGGGACAGGGUGCACAGCAGAAAGGGGUAGGACCCCAGCCCCUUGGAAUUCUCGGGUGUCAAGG` is reported as 0.366.
`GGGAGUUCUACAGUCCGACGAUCAAGUCCUGUGCUACACAUCGUAUGUACCGAAUCGGGGUGGGGAAAGGGGUUUGGGGAAAGUAUUAUGUUACGCCGUUCGGAUCUGCACUUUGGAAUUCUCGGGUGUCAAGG` gave a log2 enrichment of -1.15.
`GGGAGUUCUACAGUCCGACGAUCUGGGAGGUGGAUUUUGUAUAUUUUUUUAGCUCAUUUCCAGGGGUGGGAAUUUUUUUUUAAUAUGUGUCAUGAAUAAAGUUGUUUUUGAAAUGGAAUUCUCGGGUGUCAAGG` gave a log2 enrichment of 0.0322.
`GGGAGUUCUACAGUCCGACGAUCGGGUCUGUUGCAAAUAAAUUCUAUGUUCACAAUGAUAUCUUCAGAUACCAAGAUGAGGUCUUUGGUGGGUUUGUCACUGAGCCUCAGGAGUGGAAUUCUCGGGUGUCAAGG` gave a log2 enrichment of -0.518.
With `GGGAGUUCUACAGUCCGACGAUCUGGAGAAGGAACGUGAUAAAGAAGUAAGCGAUGAUGAGGCUGAAGAAAAGGAAGACAAAGAAGAAGAAAAAGAAAAAGAAGAGAAAGAGUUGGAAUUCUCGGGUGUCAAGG` the log2 enrichment was 0.651.
